Measurements collected from several papers.
Lines come from different studies, so protocols differ. Values after ≈ are worked out from the molar mass of the structure shown.

| SMILES | organism | test | test system | setting | how to read | quantity | value |
| --- | --- | --- | --- | --- | --- | --- | --- |
| CC[C@H](C)[C@H](NC(=O)[C@H](CC(C)C)NC(=O)CNC(=O)[C@H](CCCCN)NC(=O)[C@@H](NC(=O)[C@@H](NC(=O)[C@H](CC(N)=O)NC(=O)[C@H](Cc1c[nH]c2ccccc12)NC(=O)[C@@H](NC(=O)[C@H](CCC(=O)O)NC(=O)CNC(=O)[C@H](Cc1c[nH]c2ccccc12)NC(=O)[C@@H](N)CC(C)C)[C@@H](C)CC)[C@@H](C)O)C(C)C)C(N)=O | Herpes simplex virus 1 | viral attachment, plaque reduction | Vero, F | 1 h, 4 °C | – | IC50 | 3.7 µg/mL |
| COc1ccc(-c2cc(=O)c3c(O)c(OC)c(O)c(OC)c3o2)cc1O | VSV-pseudotyped HIV-1 | viral replication | MT-2 | 48 h | – | IC50 | 10.6 µM |
| c1cc2c(s1)CCOC21CCN(Cc2ccc3c(c2)OCCO3)CC1 | Streptococcus pyogenes | microbial growth, broth dilution | 1308007P | – | – | MIC | 16 µM (≈ 5.72 µg/mL) |
| COc1cc(-c2oc3cc(O[C@@H]4O[C@@H](C)[C@H](O)[C@@H](O)[C@H]4O)cc(O)c3c(=O)c2O[C@@H]2O[C@H](CO[C@@H]3O[C@@H](C)[C@H](O)[C@@H](O)[C@H]3O)[C@@H](O)[C@H](OC(C)=O)[C@H]2O)ccc1O | influenza virus | viral replication | MDCK | – | – | EC50 | 1.2 to 1.3 µM |
| O=C1/C(=N\NC(=S)NN=Cc2cccs2)c2ccccc2N1Cc1ccccc1 | influenza B virus | viral cytopathogenicity, visual CPE score | MDCK | – | – | EC50 | > 4 µM |
| COc1ccc(Br)cc1/C=N/NC(=O)Cn1ccc(=O)c2ccccc21 | Fusarium graminearum | microbial growth | – | 50 µg/mL | – | inhibition | 21.4% |
| CC(=O)[O-].O.[Cu+2].[O-]c1ccc(Br)cc1C=NCCN1CCOCC1 | Salmonella enterica | – | serovar Typhi | 20 µL of 100 µM per disc | – | inhibition zone diameter | 16 mm |
| CCc1ccc([C@@H]2C[C@H](C(F)(F)F)n3ncc(C(=O)NCc4ccc(OC)cc4)c3N2)cc1 | Streptococcus pyogenes | microbial growth, broth dilution | 1308007P | – | – | MIC | 64 µM (≈ 29.3 µg/mL) |
| CC[C@H](C)[C@H](NC(=O)[C@H](CCCCN)NC(=O)[C@H](CCCCN)NC(=O)[C@H](C)NC(=O)[C@@H](NC(=O)[C@H](C)NC(=O)[C@H](CC(C)C)NC(=O)[C@H](CC(C)C)NC(=O)[C@H](C)NC(=O)[C@H](CCCCN)NC(=O)[C@H](CC(C)C)NC(=O)[C@H](CC(N)=O)NC(=O)[C@@H](N)CC(C)C)C(C)C)C(=O)N[C@@H](CC(C)C)C(N)=O | Staphylococcus aureus and Pseudomonas aeruginosa | biofilm formation | – | – | – | maximum MBIC | 32 µM |
| O=C(Cn1ccc(=O)c2ccccc21)N/N=C/c1cc(Br)c(O)c(Br)c1 | Fusarium graminearum | microbial growth | – | 50 µg/mL | – | inhibition | 19% |
| CN1CC(=O)N=C1N.C[C@H](CCC(=O)O)[C@H]1CC[C@H]2[C@@H]3CC[C@@H]4C[C@H](O)CC[C@]4(C)[C@H]3CC[C@]12C | Salmonella enterica Typhimurium | – | TISTR 1470 | 1 mg per disc, 18 to 24 h, 37 °C, 6 mm disc | – | inhibition zone | inactive |
| CC(C)C1=C[C@@]23CC[C@@H]4[C@](C)(CCC[C@@]4(C)C(=O)OCC#CCN4CCCC4)[C@H]2C[C@@H]1[C@H]1C(=O)CCC(=O)[C@H]13 | influenza A virus A/Puerto Rico/8/34 (H1N1) | – | MDCK | concentration not given | reference: compound over oseltamivir | relative antiviral activity | 13 |
| COC(=O)C1NC(=O)C2NC(=O)C(NC(=O)C3NC(=O)C4NC(=O)C(NC(=O)C(Nc5c(NCCCCCCO)c(=O)c5=O)c5ccc(O)c(c5)Oc5cc4cc(O)c5C)C(O)c4ccc(cc4)Oc4cc3cc(c4O)Oc3ccc(cc3)C2O)c2ccc(O)c(c2)-c2c(O)cc(O)cc21 (centres unmarked) | influenza virus | viral replication | – | – | – | EC50 | 1 µM |
| O=C(NC12CC3CC(CC(C3)C1)C2)c1cc2cc(Cl)ccc2[nH]1 | Streptococcus pyogenes | microbial growth, broth dilution | 1308007P | – | – | MIC | > 64 µM |
| CON(C(=O)c1cn(C)nc1C(F)F)C(C)Cc1c(Cl)cc(Cl)cc1Cl (centres unmarked) | Fusarium pseudograminearum | – | – | 1.56 µg/mL | – | inhibition | 84.7% |
| Cc1cccc(-c2nc(Nc3ccncn3)c3sccc3n2)n1 | Streptococcus pyogenes | microbial growth, broth dilution | 1308007P | – | – | MIC | > 64 µM |
| CN1CC(=O)N=C1N.C[C@H](CCC(=O)O)[C@H]1CC[C@H]2[C@@H]3[C@@H](O)C[C@@H]4C[C@H](O)CC[C@]4(C)[C@H]3CC[C@]12C | Salmonella enterica Typhimurium | – | TISTR 1470 | 1 mg per disc, 18 to 24 h, 37 °C, 6 mm disc | – | inhibition zone | inactive |
